Experimental data from different studies.
Lines come from different studies, so protocols differ. Values joined by “and” are separate records of one study, mostly repeats; a detail may differ. Numbers after ± are the reported error.
CFTR del508-508: Cystic fibrosis transmembrane conductance regulator (CFTR, Homo sapiens, UniProt P13569, del508-508)
dncV: dncV (Vibrio cholerae, UniProt Q9KVG7)

SMILES | tested on | assay | system | setting | how to read | measurement | result
CC(C)[C@H](N)C(=O)N[C@@H](Cc1ccc(O)cc1)C(=O)N[C@@H](CCCCN)C(=O)N[C@H](C(=O)N[C@@H](CCCCN)C(=O)N[C@H](C(=O)N[C@@H](CCCCN)C(=O)N[C@H](C(=O)N[C@@H](CCCCN)C(=O)N[C@H](C(=O)N[C@@H](CCCCN)C(=O)N[C@H](C(=O)N[C@@H](CCCCN)C(=O)N[C@H](C(=O)N[C@@H](CCCCN)C(=O)N[C@H](C(=O)N[C@@H](CCCCN)C(=O)N[C@H](C(=O)O)[C@@H](C)O)C(C)C)[C@@H](C)O)C(C)C)[C@@H](C)O)C(C)C)[C@@H](C)O)C(C)C |  | binding, SPR two-state model | rVλ6Wil fibrils | 300 nM, pH 7.4 |  | ka1 | 420000 M⁻¹ s⁻¹
CC(=O)NC(Cc1ccc(Br)c(Cl)c1)C(=O)N[C@@H](C)C(=O)N1CCC[C@H]1C(=O)N1CCC[C@H]1C(=O)N[C@@H](CCC(=O)O)C(=O)N[C@@H](Cc1c[nH]cn1)C(=O)N[C@@H](CO)C(=O)N[C@H](C(=O)N[C@@H](C)C(N)=O)[C@@H](C)OP(=O)(O)O (some centres unmarked) | Protein kinase C alpha type (PRKCA, Homo sapiens, UniProt P17252) |  |  | 10 µM |  | inhibition | 1.58 ± 0.08%
CCN(Cc1ccccc1)C(=O)CCc1nc(CN2CCN(C(=O)Cc3ccc(OC)c(OC)c3)CC2)no1 | Potassium voltage-gated channel subfamily KQT member 4 (KCNQ4, Homo sapiens, UniProt P56696) | potassium current, whole-cell patch clamp | CHO, stable | 100 nM |  | activation V1/2 | -28.3 ± 0.82 mV
NCCCC[C@H](NC(=O)CNC(=O)CNC(=O)[C@H](CCCCN)NC(=O)CNC(=O)CNC(=O)CNC(=O)[C@H](CCCCN)NC(=O)CNC(=O)CNC(=O)[C@H](CCCCN)NC(=O)CNC(=O)CNC(=O)CNC(=O)[C@H](CCCCN)NC(=O)CNC(=O)CNC(=O)[C@H](CCCCN)NC(=O)CNC(=O)CNC(=O)CNC(=O)[C@H](CCCCN)NC(=O)CNC(=O)CNC(=O)[C@H](CCCCN)NC(=O)[C@H](CO)NC(=O)[C@H](Cc1ccc(O)cc1)NC(=O)CNC(=O)CNC(=O)CN)C(=O)NCC(=O)O |  | binding, SPR two-state model | rVλ6Wil fibrils | 300 nM |  | Rmax | 19 RU
CC(=O)N[C@@H](CCC(=O)O)C(=O)N[C@@H](CCC(N)=O)C(=O)N[C@H](C(=O)N[C@@H](CCC(=O)O)C(=O)N[C@@H](CC(C)C)C(=O)N[C@@H](CCC(=O)O)C(=O)N[C@@H](Cc1ccccc1)C(=O)N[C@@H](CC(=O)O)C(=O)O)C(C)C | Beta sliding clamp (Escherichia coli, UniProt P0A988) | HDX-MS |  | concentration not given, 2 h, pH pD 7.4, 37 °C |  | deuterium uptake | 162 ± 2 Da
CC(C)(C)c1cc(C(C)(C)C)c(-n2cc(-c3cnc4ccccc4c3O)nn2)cc1O | CFTR del508-508 | short-circuit current, potentiator | CFBE41o- F508del | 24 h, with: VX-809 3 µM, forskolin 10 µM |  | EC50 | inactive
C[C@@H](NC(=O)[C@@H](CCC(N)=O)NC(=O)[C@@H](C)NC(=O)[C@@H](CCCCN)NC(=O)[C@@H](CCC(N)=O)NC(=O)[C@@H](C)NC(=O)[C@@H](CCCCN)NC(=O)[C@@H](CCC(N)=O)NC(=O)[C@@H](C)NC(=O)[C@@H](CCC(N)=O)NC(=O)[C@@H](CCCCN)NC(=O)[C@@H](C)NC(=O)[C@@H](CCC(N)=O)NC(=O)[C@@H](CCCCN)NC(=O)[C@@H](C)NC(=O)[C@@H](CCC(N)=O)NC(=O)[C@@H](C)NC(=O)[C@@H](CCCCN)NC(=O)[C@@H](CCC(N)=O)NC(=O)[C@@H](C)NC(=O)[C@@H](CCCCN)NC(=O)[C@@H](CO)NC(=O)[C@@H](Cc1ccc(O)cc1)NC(=O)CNC(=O)CNC(=O)CN)C(=O)N[C@H](CCCCN)C(=O)N[C@H](CCC(N)=O)C(=O)N[C@H](C)C(=O)N[C@H](CCCCN)C(=O)N[C@H](CCC(N)=O)C(=O)O |  | binding, SPR Langmuir fit | rVλ6Wil fibrils | 300 nM, pH 7.4 |  | Rmax | 36.5 RU
COc1ccc(C2(C(=O)Nc3ccc(C)c(-c4cccc(C(=O)O)c4)c3)CC2)cc1 | CFTR del508-508 | chloride conductance, corrector | CFBE41o- F508del |  | relative to: 3 µM VX-809 | Emax | 54% and 54.1%
Nc1nc2c([C@@H]3O[C@@H]4COP(=O)(O)O[C@H]5[C@@H](O)[C@H](c6snc7c(=O)[nH]c(N)nc67)O[C@@H]5COP(=O)(O)O[C@H]4[C@H]3O)snc2c(=O)[nH]1 | dncV | substrate |  |  | relative to: cyclization over intermediate degradation | k2/k3 ratio | 26
CC(C)C[C@H](NC(=O)[C@H](Cc1ccccc1)NC(=O)CNC(=O)CNC(=O)[C@@H](N)Cc1ccc(OC(C(=O)O)c2ccccc2[N+](=O)[O-])cc1)C(=O)O (some centres unmarked) |  | K+ current, agonist, photo-uncaging | rat locus coeruleus neurons | concentration not given |  | peak current | 179 ± 9 pA
CCCCCn1cc(C(=O)c2cccc3c2CC(C)(C)C3)c2ccccc21 | Cannabinoid receptor 1 (CNR1, Homo sapiens, UniProt P21554, I267L) | Gαi1 engagement, agonist, BRET |  |  | relative to: reference agonist at wild-type CB1 | Emax | 67.5 ± 4.1%
Nc1nc2c([C@@H]3O[C@@H]4COP(=O)(O)O[C@H]5[C@@H](O)[C@H](c6scc7c(=O)[nH]c(N)nc67)O[C@@H]5COP(=O)(O)O[C@H]4[C@H]3O)scc2c(=O)[nH]1 | dncV | substrate |  |  | relative to: cyclization over intermediate degradation | k2/k3 ratio | 8
Cc1ccc(-n2cc(C3(c4ccc5c(c4)OC(F)(F)O5)CC3)nn2)cc1-c1cccc(C(=O)O)c1 | CFTR del508-508 | chloride conductance, corrector | CFBE41o- F508del |  | relative to: 3 µM VX-809 | Emax | 48.1% and 48%
CCCCCn1cc(C(=O)c2cccc3ccccc23)c2ccccc21 | Cannabinoid receptor 1 (CNR1, Homo sapiens, UniProt P21554) | β-arrestin recruitment, agonist, BRET | HEK-293T |  |  | Emax | 168%

For quick reference, copied from above:
SMILES | tested on | assay | system | setting | how to read | measurement | result
Nc1nc2c([C@@H]3O[C@@H]4COP(=O)(O)O[C@H]5[C@@H](O)[C@H](c6snc7c(=O)[nH]c(N)nc67)O[C@@H]5COP(=O)(O)O[C@H]4[C@H]3O)snc2c(=O)[nH]1 | dncV | substrate |  |  | relative to: cyclization over intermediate degradation | k2/k3 ratio | 26
